Experimental data of several laboratories.
Protocols differ between the studies behind these lines. ± marks the error that the study gave.
UniProt P51617, sequence (whole entry, looked up): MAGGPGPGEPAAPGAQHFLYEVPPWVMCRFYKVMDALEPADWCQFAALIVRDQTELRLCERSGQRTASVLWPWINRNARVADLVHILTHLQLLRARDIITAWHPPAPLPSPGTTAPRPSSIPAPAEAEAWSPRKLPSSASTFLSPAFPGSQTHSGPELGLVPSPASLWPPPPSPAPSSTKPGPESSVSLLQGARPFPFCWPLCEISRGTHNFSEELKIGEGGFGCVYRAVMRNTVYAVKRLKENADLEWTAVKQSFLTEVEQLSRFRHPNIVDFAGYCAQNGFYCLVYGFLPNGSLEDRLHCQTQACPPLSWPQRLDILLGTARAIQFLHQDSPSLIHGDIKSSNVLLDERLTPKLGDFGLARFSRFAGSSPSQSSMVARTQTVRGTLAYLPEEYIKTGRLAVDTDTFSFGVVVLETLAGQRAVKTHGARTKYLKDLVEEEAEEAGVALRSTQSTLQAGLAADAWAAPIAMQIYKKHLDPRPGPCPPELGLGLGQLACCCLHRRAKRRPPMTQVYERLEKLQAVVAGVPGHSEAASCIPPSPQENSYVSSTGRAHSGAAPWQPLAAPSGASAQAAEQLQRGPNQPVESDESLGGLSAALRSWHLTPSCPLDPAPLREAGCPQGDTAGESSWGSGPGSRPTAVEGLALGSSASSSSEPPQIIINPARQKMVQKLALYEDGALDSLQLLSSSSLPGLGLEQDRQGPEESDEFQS
UniProt Q9UM73, sequence (whole entry, unmodified, looked up): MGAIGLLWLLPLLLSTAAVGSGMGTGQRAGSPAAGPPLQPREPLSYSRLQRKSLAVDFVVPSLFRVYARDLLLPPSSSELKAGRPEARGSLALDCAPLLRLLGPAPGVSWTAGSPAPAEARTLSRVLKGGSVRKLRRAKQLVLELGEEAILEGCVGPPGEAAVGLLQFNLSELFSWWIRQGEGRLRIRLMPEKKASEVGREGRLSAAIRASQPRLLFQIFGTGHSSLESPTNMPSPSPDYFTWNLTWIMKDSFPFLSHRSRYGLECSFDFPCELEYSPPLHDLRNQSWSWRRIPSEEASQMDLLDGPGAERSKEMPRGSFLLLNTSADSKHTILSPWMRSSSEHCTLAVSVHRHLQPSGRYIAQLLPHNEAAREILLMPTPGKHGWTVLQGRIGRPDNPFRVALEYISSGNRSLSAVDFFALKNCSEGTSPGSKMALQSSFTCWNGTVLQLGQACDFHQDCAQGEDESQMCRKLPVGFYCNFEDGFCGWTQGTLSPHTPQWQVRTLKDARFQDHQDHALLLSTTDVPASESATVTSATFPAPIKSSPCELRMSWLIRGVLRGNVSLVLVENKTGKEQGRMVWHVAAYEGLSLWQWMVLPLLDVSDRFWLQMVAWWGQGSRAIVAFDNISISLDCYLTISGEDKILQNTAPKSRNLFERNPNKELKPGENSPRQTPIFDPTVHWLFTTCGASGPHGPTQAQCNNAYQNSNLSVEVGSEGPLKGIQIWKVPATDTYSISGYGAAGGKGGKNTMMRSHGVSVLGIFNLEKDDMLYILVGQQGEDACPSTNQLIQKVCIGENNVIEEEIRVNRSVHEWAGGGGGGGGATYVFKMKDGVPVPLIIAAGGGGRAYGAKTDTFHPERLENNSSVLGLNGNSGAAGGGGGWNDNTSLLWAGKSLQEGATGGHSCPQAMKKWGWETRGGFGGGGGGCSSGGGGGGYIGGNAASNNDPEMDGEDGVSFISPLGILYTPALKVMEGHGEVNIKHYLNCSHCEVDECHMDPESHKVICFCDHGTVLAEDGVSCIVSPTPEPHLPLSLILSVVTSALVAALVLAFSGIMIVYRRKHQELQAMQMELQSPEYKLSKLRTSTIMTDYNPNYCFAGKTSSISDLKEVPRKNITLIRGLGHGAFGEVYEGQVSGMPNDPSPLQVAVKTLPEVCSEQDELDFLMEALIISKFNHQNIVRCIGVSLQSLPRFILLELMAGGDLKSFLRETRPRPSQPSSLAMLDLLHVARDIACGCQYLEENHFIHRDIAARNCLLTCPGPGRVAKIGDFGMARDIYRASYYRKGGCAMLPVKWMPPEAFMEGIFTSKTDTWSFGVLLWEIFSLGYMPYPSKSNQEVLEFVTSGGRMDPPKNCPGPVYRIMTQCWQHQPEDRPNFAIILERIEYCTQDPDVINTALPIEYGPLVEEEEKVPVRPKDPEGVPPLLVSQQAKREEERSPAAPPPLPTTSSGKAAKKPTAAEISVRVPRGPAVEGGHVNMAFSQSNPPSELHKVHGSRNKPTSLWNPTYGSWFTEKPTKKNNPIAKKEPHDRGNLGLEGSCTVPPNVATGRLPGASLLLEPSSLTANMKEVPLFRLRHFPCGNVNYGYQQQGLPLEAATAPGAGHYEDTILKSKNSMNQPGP
UniProt P31751, sequence (whole entry, looked up): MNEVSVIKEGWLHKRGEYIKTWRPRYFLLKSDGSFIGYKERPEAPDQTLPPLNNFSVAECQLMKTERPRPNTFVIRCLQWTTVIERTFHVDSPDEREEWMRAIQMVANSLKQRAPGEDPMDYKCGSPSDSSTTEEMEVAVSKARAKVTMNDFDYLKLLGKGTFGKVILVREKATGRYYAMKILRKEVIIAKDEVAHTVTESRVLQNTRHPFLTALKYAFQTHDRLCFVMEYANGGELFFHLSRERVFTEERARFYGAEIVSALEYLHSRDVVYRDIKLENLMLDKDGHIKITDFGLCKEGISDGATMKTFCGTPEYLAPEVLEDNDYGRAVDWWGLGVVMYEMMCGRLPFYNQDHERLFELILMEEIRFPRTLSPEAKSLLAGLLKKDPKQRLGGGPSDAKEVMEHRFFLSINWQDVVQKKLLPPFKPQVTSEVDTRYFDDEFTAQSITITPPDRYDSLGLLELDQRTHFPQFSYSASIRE
UniProt P11362, sequence (whole entry, looked up): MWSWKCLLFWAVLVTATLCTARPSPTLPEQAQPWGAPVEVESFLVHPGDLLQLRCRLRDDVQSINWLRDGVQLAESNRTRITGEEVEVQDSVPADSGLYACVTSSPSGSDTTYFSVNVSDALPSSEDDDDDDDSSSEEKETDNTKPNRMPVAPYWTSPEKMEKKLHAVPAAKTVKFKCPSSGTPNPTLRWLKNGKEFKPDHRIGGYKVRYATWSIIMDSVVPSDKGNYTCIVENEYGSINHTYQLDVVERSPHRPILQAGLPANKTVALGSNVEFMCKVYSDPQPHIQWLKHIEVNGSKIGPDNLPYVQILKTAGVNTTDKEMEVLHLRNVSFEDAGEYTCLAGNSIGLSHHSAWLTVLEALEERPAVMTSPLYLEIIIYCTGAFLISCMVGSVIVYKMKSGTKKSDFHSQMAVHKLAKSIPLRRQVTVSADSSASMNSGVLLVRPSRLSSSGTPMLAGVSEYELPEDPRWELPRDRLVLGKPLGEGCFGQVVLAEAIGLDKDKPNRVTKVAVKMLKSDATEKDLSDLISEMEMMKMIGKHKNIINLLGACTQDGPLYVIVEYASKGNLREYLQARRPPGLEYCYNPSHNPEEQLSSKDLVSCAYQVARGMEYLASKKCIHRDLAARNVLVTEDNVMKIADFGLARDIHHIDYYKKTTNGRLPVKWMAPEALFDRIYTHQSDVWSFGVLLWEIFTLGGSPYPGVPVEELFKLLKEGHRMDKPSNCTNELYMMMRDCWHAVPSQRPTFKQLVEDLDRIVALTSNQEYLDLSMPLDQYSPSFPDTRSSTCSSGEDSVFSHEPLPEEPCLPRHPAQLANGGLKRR
UniProt P35367, sequence (whole entry, looked up): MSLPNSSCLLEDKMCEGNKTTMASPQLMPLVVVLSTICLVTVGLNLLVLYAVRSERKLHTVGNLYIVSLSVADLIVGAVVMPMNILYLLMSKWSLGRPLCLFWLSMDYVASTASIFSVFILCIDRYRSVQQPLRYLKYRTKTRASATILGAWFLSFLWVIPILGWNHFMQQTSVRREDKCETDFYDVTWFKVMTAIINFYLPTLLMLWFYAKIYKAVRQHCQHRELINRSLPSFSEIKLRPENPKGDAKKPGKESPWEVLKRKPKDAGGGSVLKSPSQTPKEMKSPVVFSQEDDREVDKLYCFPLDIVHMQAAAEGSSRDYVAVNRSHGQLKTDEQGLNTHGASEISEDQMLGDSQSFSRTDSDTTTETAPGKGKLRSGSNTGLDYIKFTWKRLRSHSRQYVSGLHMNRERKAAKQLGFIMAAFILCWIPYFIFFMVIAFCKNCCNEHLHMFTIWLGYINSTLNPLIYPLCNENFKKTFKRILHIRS
UniProt Q9HC98, sequence (whole entry, looked up): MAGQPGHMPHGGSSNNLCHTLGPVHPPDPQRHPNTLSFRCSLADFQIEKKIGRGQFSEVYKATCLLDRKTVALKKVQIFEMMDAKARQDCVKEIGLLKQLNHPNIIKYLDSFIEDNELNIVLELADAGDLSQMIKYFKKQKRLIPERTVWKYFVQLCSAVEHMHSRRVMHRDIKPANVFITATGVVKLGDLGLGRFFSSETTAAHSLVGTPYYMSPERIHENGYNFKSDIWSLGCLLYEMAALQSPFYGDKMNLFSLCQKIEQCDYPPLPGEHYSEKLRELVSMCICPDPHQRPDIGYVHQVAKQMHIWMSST
UniProt Q86UX6, sequence (whole entry, looked up): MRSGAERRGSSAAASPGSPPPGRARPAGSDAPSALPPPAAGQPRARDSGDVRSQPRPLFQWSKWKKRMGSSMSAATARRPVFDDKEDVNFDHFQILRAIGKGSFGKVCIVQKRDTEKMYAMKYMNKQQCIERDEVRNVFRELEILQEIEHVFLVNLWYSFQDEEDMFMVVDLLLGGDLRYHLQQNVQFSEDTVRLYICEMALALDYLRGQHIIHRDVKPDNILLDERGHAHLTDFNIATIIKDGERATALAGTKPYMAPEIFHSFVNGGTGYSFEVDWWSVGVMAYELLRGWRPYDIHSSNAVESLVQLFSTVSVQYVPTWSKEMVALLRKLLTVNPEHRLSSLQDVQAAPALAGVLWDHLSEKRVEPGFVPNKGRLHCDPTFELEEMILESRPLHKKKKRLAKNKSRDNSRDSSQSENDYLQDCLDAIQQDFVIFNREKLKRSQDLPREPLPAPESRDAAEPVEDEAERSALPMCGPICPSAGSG

SMILES = COc1ccccc1-c1n[nH]c2nc(NC3CCN(C(=O)Cc4ccc(F)cc4F)CC3)ncc12; assay = bead binding, competition bead pull-down, measured: LINJ.25.2090; system = Leishmania donovani extract; setting = 10 µM; scale = relative to: vehicle; quantity = relative abundance; result = 1.03
SMILES = C[C@H](NCc1ccc(-c2ccc(C(F)(F)F)cc2)cc1)C(N)=O; tested on = Serine/threonine-protein kinase 32C (STK32C, Homo sapiens, UniProt Q86UX6); assay = cell-free assay, competition with immobilised ligand; setting = 1 µM; quantity = inhibition; result = 0%
SMILES = CS(C)(=O)=Nc1ccc(-c2ccc(-c3nc4cc(O[C@@H]5CO[C@H]6[C@@H]5OC[C@H]6O)[nH]c4cc3F)cc2)cc1; tested on = Phosphatidylinositol 4,5-bisphosphate 3-kinase catalytic subunit beta isoform, with p85 alpha (PIK3CB, Homo sapiens, UniProt P42338); assay = kinase activity; setting = 10 µM; quantity = inhibition; result = -2%
SMILES = CC(C)(C)C(=O)OCOP(=O)(OCOC(=O)C(C)(C)C)C1CCCN(O)C1=O (stereo not drawn); tested on = BT-549; quantity = log TGI; result = -5.9 log M
SMILES = O=C(O)c1ccccc1/C=N/Nc1nc(-c2ccccc2Cl)cs1; tested on = RAC-beta serine/threonine-protein kinase (AKT2, Homo sapiens, UniProt P31751); assay = kinase activity; setting = 1 µM, mean; quantity = inhibition; result = 0.19%
SMILES = O=C1NC2(CC2)COc2ncc(F)cc2[C@H]2COCCN2c2ccn3ncc1c3n2; system = Sprague-Dawley rat, female, serum; setting = oral, 2.5 mg/kg/day, end of treatment, 4-week subacute toxicity; quantity = serum urea; result = 6.1 ± 1.03 mmol/L
SMILES = COc1ccc(F)cc1S(=O)(=O)Nc1cnc2c(c1)C(=O)NCCO2; tested on = adrenergic alpha1B receptor; assay = radioligand binding; setting = 10 µM; quantity = inhibition; result = -2%
SMILES = N[C@H](C(=O)N1CCCC1)C1CCN(c2nccc3c(-c4ncc(Cl)cc4Cl)cccc23)CC1; tested on = Fibroblast growth factor receptor 1 (FGFR1, Homo sapiens, UniProt P11362); assay = kinase activity, inhibitor; setting = 10 µM, together with: ATP 1 mM; quantity = inhibition; result = 11.2%
SMILES = CN(C)[C@H]1C[C@@]23CC[C@@]4(O2)C(=CC[C@]2(C)[C@@H](c5ccc6ccncc6c5)CC[C@H]24)C=C3[C@@H](O)[C@@H]1O; tested on = Interleukin-1 receptor-associated kinase 1 (IRAK1, Homo sapiens, UniProt P51617); assay = ATP probe labelling, inhibitor, KiNativ profiling; setting = 1 µM; quantity = inhibition; result = -3.1%
SMILES = O=C1NC(=O)c2c1c1cc(F)c[n+]3c1c1c2c2cc(O)ccc2[n]1[Ru-4]312([N]=C=S)[S+]3CC[S+]1CC[S+]2CC3 (stereo not drawn); tested on = Serine/threonine-protein kinase Nek6 (NEK6, Homo sapiens, UniProt Q9HC98); assay = enzyme activity; setting = 100 nM, human enzyme, together with: 10 µM ATP; scale = relative to: untreated; quantity = remaining activity; result = 57%
SMILES = CN[C@@H]1[C@H](O)[C@H](NC)[C@H]2O[C@]3(O)[C@H](O[C@@H]2[C@H]1O)O[C@H](C)C[C@H]3NC(=O)Cc1cc(Cl)ccn1; tested on = Histamine H1 receptor (HRH1, Homo sapiens, UniProt P35367); assay = ligand displacement, radioligand; setting = 10 µM; quantity = inhibition; result = 13%
SMILES = CC(C)[C@H]1NC(=O)C[C@H]2/C=C/CCSSC[C@@H](NC1=O)C(=O)N[C@H](Cc1cccc3ccccc13)C(=O)NCC(=O)O2; tested on = ALK tyrosine kinase receptor (ALK, Homo sapiens, UniProt Q9UM73, G1202R); assay = enzyme activity, inhibitor; setting = 10 µM; quantity = inhibition; result = 8.9%

Repeated from above:
SMILES = O=C1NC(=O)c2c1c1cc(F)c[n+]3c1c1c2c2cc(O)ccc2[n]1[Ru-4]312([N]=C=S)[S+]3CC[S+]1CC[S+]2CC3 (stereo not drawn); tested on = Serine/threonine-protein kinase Nek6 (NEK6, Homo sapiens, UniProt Q9HC98); assay = enzyme activity; setting = 100 nM, human enzyme, together with: 10 µM ATP; scale = relative to: untreated; quantity = remaining activity; result = 57%
SMILES = CN[C@@H]1[C@H](O)[C@H](NC)[C@H]2O[C@]3(O)[C@H](O[C@@H]2[C@H]1O)O[C@H](C)C[C@H]3NC(=O)Cc1cc(Cl)ccn1; tested on = Histamine H1 receptor (HRH1, Homo sapiens, UniProt P35367); assay = ligand displacement, radioligand; setting = 10 µM; quantity = inhibition; result = 13%
